Assay results of several laboratories.
Numbered parts are unrelated; each lists some results of a single study. Substitutions count along the parent as printed.

Series 1
Target: RING finger protein unkempt homolog, zinc fingers 1-6, GST-SBP tag (UNK, Homo sapiens, UniProt Q9C0B0, residues 30-357)
Technique: RNA Bind-n-Seq
Form: RNA
Sample: in vitro
Tested at: not given
Notes: RNA with constant flanks, human and mouse sites, ends assumed
Reference: input RNA pool
Direction: higher = stronger binding
Shared flanks, not repeated: GGGAGUUCUACAGUCCGACGAUC … CAACAGAGGAUUGAGCAUCA
Residues (chain): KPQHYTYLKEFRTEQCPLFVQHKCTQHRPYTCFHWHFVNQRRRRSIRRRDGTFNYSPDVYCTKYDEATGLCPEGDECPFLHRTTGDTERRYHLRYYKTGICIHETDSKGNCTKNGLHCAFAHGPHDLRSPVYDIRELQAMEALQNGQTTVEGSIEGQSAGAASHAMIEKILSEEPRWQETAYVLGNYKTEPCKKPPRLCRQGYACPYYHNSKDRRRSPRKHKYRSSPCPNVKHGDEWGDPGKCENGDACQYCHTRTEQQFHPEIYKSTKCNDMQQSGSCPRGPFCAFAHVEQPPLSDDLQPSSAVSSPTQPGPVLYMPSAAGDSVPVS
Oligonucleotide	bound/input enrichment [ratio]
GAUAUUGAAAAUAACAUGCCAGAGUUUUUACUAAAAAGUAUGAAAAAGAAGCCGCCUUCUACAGCUAAAAAGAUGUUCUUAAUAGUUGCUCCUCUUUCUGUCCUCUACAACUGGAAGGAU	0.388
UGCUGGCUCUGUUUUUCUGUAAAUAAAUUUGCAUAUUUUGUAGGACUUUUAAUUGUAAUGAUAGAGAAAAAACAAGGAAAACUAUUUAAUGAAAGCACGAUAUUUAUCUUUGGUAAAUGA	1.88
AUCAUAGAGAACCAGCAGCAGCUAAACAGCCCUCUGCUUGCUUCCAAAGGGCUUAUAAUUGAGCACAGAUGGUCCUAGUGGAGAUGGGGAAUGUGUCCCUGCUGACUCCUCAUACCCCAG	0.184
UACAUUUACAAAGCCAUUUUACAUGCAUUAAAAGAGGGCUACAAUGUGUUUUACAAAUACUAGCACUUUUUUUUCCUGUUAUGUACCUAGUGUUAGAGGGUCAGAAUAAUCUUUCUGCUU	0.288
GAAAGCAUCACUUCAGCUGGGAGAGAUGACCUAGAGAGCUUCCAGCUUGAGAUAAGUGGGUUUUUAAAAGAGAUGGCCUGUCCAUACUCGGUACUCGUCUCAGGAGACAUUAAAGAGCGC	0.335
GGGACUAACGGCGCCGGUGACGACUUCGCCGCGCGUUGGUCAGCCAUGGCCACCGCUCUCGCGCUACGUAGCUUGUACCGAGCGCGACCCUCGCUGCGCUGUCCGCCCGUUGAGCUUCCC	0.059
UGUGGCCUCACUAAAGGUGGGGUCGCUUAGUCCCCGGGAGUAAAAUGAGUGACCUCAGAAACAAGAAUUCCUGGAAAGGCACAUGCCGAAGAGGAAUAUGGUAUAAUUUUAAAUUUUAAU	1.68
GAAGGGCUAUCUUUCUAUUCACAUCAAACCUUUUGUUGCGUGUUUCUGUUUUUUAAUACUUUAGGGUUCUGAUUUGUGGGAACAGACCUUGUAAAUAACCACUGUUCACAUGUGUGGCAG	0.479
AGUAGAGAUUCAGCACAGUUGGACUUCAGGAACAGGGACAUACAUUCUGGGGAUUUUCGGGAUAGAGAAGGACCACCUAUGGACUACAGGGGUGGAGAUGGUACUCCUAUGGAUUAUAGA	1.2
UAAUAAAAACUGGAGAAAUAGGAAUUUGUGAACUCCUAAAAUUGUAGCAACUUUGAAAGGUUAGUGUUUUAUUUACCUGACAAAUGGAAGUUAUAGAAGUCUAAUAAUGUUAAGCACCAG	1.67
UCCUCUUGCCUUUUCUUGCCUCGGUUGAAUACUUAACUAAGCUGUGUGCUUGUUGAUCUAUGUAUUCUGACUUCACUUGAGUACCACCCACCUUUUCUUUUAAAGUAAUUCAGUAAGUAA	0.481

Series 2
Target: RNA binding protein fox-1 homolog 2, RRM domain, GST-SBP tag (RBFOX2, Homo sapiens, UniProt O43251-10, residues 100-194)
Technique: RNA Bind-n-Seq
Form: RNA
Sample: in vitro
Tested at: 365 nM
Notes: natural RNA segment, single round, ends assumed
Reference: no-protein control
Direction: higher = stronger binding
Shared flanks, not repeated: GGGAGUUCUACAGUCCGACGAUC … UGGAAUUCUCGGGUGCCAA
Residues (chain): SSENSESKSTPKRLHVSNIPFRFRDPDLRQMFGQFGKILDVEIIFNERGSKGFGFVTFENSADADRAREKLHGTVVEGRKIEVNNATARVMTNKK
Oligonucleotide	RBNS enrichment (R)
CCUCUCCAUCUGCUGUGUUUGGACGCGUUCCUGCCCAGCCCCUUGCUGUCAUCCCCUCCCCCAACCUUGGCCACUUGAGUUUGUCCUCCAAGGGUAGGUGUCUCAUUUGU	0.697
GAUGCUUGUGGCACACAGUUGGGUGAUGUGGGGAAAGGACACCGGGUCAGGAGUUGCAAGUUUAACUCCGUCCUCACUUGUAGCAUUGAAUGCCUCCUGUGCUGUCUAGU	37.7
UGAGGUCUGCGUCGGGCUUGGCUUUUCACAAAGGCUGAUGUCUUAACUGUCACCCAUAUGGUCCCUGGGCCACCGGGCAGCCUGGGGCGGUGUGUGUGCCAUGUCACAGC	0.791
CUAAACAGUAAUUAAUUUAUAUUUGUGAAAAAUGCCACUGUCCUGGUGAUUUCUGAUGUAAAUAAUGUUGUUUAUAUAGUAUGUAUUAAAUUUUCCUACAUUGUAAAACU	0.344
GAAUAGGGAUCUGUGGUAGCCAGUGUUCCUAUGUUCUGCUAGUACCUGGGUCACCAGCCAUAGGGUACAGCCAGCCCCAGUGUGUGGUCUUGUUGGCCUGCUGGGUAGAA	0.853
UGGCCCUGCCAGCAGGCGGAGGAUGAGGCCCUCCUUCUCUGAGGACGGGUCUGCUGGAGAGAGAAGAAACAGGUGGCUGCCUUCCACCUCACUCCUCACUUGAGCUGCCU	0.198
GAGAGCCUGCGUUCUUCUGCCUCAGCUCUGCUCCUCAGGAAGGGGUGGCUCCAGCUGCCCACCAUUCUCACUCUUCUCCUCCCAAGCCACCGGGGUCAGGUCUCUCAUCU	0.386
UUUACCUGUGAGGGGCUCCAUGCUCCAGCAGCAGAGCAGGUUCUAGUGACAAUUCAACUUUUUAUGCUAUGACCAGGGGUGGAUCUAAAUUUUAUGGGGCUGAAAGCUUG	1.35
AACAUUUUCUCCCUGGAUUUUUACCAGUCUCACAUGAUUCCAGCCAUCACCUUAGACCACCAAGCCUUGAUUGGUGUUGCCAGUUGUCCUCCUUCCGGGGAAGGAUUUUG	0.457
GCCUCAUUUGCAAGAUGUGCAAGCUUAAUGUCUUCUUCACCAUAAAGCAACAUGGAAAUAACCAUAGACAAAACUUAUUUGGGUAACUAGAAACCAAUGAGCUUUAGAUU	0.463
CCAACAUUUGACACCCCAGCAAUGUGUGACUCCCCCAACAUUCCACUAUGCCAUCCUGCAGCUGAAAUGGGAACACUGGCUGCCUCUCCAAACCCGCUCUUGGACAGAGG	0.655
AGCAGGUCUGGUGACACAGCUAGGGUCUUCCUAGCAGCUCCUCCUCCUCCCUCCCAAGGCCCCCAGGAAUCCCUUCCUCCCAUGUCCUGGCAGCAGGACCCCAGGCUACA	0.352

Series 3
Target: JUNB, bZIP domain (human)
Technique: DHFR protein complementation
Sample: yeast
Notes: single substitutions, most at no-binding floor
Reference: wild-type JUN-FOS pair
Direction: higher = stronger binding
Parent: JUN, bZIP domain (human); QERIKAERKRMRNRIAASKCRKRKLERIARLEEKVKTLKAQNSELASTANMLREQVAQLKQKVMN; partner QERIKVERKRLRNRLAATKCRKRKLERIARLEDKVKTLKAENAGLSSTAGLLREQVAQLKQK
Substitution	binding fitness [natural log]
L52Q	-1.52
L31K	-1.52
K39F	-1.5
K36S	-1.3
L38G	-1.5
L38K	-1.4
A29M	-1.42
R53M	-1.39
L31Y	-1.41
L59G	-1.17
R53N	-1.51
R53V	-1.5
K39E	-0.933
K34M	-0.973
V56L	-0.965
R30S	-1.06
L45D	-1.51
K34G	-1.39

Series 4
Target: Ras GTPase-activating protein-binding protein 1, full length (G3BP1, Homo sapiens, UniProt Q13283)
UniProt Q13283, sequence (whole entry, looked up): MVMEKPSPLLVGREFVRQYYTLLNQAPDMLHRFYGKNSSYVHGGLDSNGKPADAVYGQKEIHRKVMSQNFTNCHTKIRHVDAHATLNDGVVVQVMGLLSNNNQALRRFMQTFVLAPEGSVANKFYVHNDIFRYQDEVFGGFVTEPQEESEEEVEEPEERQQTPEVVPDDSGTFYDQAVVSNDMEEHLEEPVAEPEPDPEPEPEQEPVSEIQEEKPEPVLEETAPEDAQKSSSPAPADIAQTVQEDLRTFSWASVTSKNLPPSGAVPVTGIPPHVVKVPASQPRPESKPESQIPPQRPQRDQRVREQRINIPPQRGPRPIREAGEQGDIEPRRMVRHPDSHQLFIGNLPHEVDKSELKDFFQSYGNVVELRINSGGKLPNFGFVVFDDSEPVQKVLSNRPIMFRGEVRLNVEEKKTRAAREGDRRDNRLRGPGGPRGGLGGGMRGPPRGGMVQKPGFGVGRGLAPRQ
Technique: RNA Bind-n-Seq
Form: RNA
Sample: in vitro
Tested at: 200 nM
Notes: whole 134-nt RNA, ends assumed
With: 150 mM KCl
Reference: input library
Direction: higher = stronger binding
Shared flanks, not repeated: GGGAGUUCUACAGUCCGACGAUC … UGGAAUUCUCGGGUGUCAAGG
Oligonucleotide	log2 enrichment
CACAGACAACACGCACCCACACAGACACAGAGGGAAGGGCUUGGGAUGGGGACAGGGUGCACAGCAGGGCGGGGUAGGACCCCAGCCCCU	2
AUUUUUUGUAUCAAGUCCCUGAAUGGAAGUAUGACGUUGGGUCCCUCUGAAGUUUAAUUCUGAGUUCUCAUUAAAAGAAAUUUGCUUUCA	-2.01
CCUGUGCUACACAUCGUAUGUACCGAAUCGGGGAAAAAAAGGAAAAAAAGGAAAAAAAGGGAAAGUAUUAUGUUACGCCGUUCGGAUCUG	-0.629
GUCCUGUGCUACACAUCGUAUGUACCGAAUCGGGGAAAAAGGAAAAAGGAAAAAGGGGAAAGUAUUAUGUUACGCCGUUCGGAUCUGCAC	-0.543
CCUGUGCUACACAUCGUAUGUACCGAAUCGGGGAAAGGGGUUUUUGGGGAAAAAAAGGGGAAAGUAUUAUGUUACGCCGUUCGGAUCUGC	0.094
UGGUAUUCAUGGGUAGUUUGAAAUAUCCAGAUGAGAAUGGAUUUGAUGCCUUCCUGAAGAAGCAUGGGGGUAGUGAUAAUGCCUCAACUG	-0.942
CUCAAGUCCUGUGCUACACAUCGUAUGUACCGAAUCGGGGUGGGGUGGUGGGGAAAGUAUUAUGUUACGCCGUUCGGAUCUGCACUUCCA	0.889
CAAGUCCUGUGCUACACAUCGUAUGUACCGAAUCGGAGGAAAAAGGAAAAAAAGGAAAGUAUUAUGUUACGCCGUUCGGAUCUGCACUUC	-0.755
UCCUGUGCUACACAUCGUAUGUACCGAAUCGGGGAGGGGAAAAAAAGGGGAAAAAGGGGAAAGUAUUAUGUUACGCCGUUCGGAUCUGCA	0.484
UGGGAGGUGGAUUUUGUUUAUUUUUUUAGCUCAUUUCCAGGGGUGGGAAUUUUUUUUUAAUGUGUGUCAUGAAUAAAGUUGUUUUUGAAA	0.276
UGGCCCUGGUGGCAUGCGGGGAGGAAGAGGUGGCCUCAUGGAUCGUGGUGGUCCCGGUGGAAUGUUCAGAGGUGGCUGUGGUGGAGACAG	0.545
GCAGGAAGUAAAAACAAAUGGAAAUGCUUCGGAUAGUGGCAGGGGUGGGGGUUGCUAAGGAAAGGGUGGGAUGGGAGAAAGUAAAGAGUU	0.777
GCUGUUGGAGUGGAUCCGCCGCACAAUCCCGUGGCUGGAGAACCGGGUGCCCGAGAACACCAUGCAUGCCAUGCAACAGAAGCUGGAGGA	-2
UCAAGUCCUGUGCUACACAUCGUAUGUACCGAAUCGGGGUUGGGGUUGGUUGGGAAAGUAUUAUGUUACGCCGUUCGGAUCUGCACUUCC	0.462

Repeated from above (series 4):
Oligonucleotide	log2 enrichment
GCAGGAAGUAAAAACAAAUGGAAAUGCUUCGGAUAGUGGCAGGGGUGGGGGUUGCUAAGGAAAGGGUGGGAUGGGAGAAAGUAAAGAGUU	0.777
UGGGAGGUGGAUUUUGUUUAUUUUUUUAGCUCAUUUCCAGGGGUGGGAAUUUUUUUUUAAUGUGUGUCAUGAAUAAAGUUGUUUUUGAAA	0.276
UGGCCCUGGUGGCAUGCGGGGAGGAAGAGGUGGCCUCAUGGAUCGUGGUGGUCCCGGUGGAAUGUUCAGAGGUGGCUGUGGUGGAGACAG	0.545
UGGUAUUCAUGGGUAGUUUGAAAUAUCCAGAUGAGAAUGGAUUUGAUGCCUUCCUGAAGAAGCAUGGGGGUAGUGAUAAUGCCUCAACUG	-0.942
CACAGACAACACGCACCCACACAGACACAGAGGGAAGGGCUUGGGAUGGGGACAGGGUGCACAGCAGGGCGGGGUAGGACCCCAGCCCCU	2
UCCUGUGCUACACAUCGUAUGUACCGAAUCGGGGAGGGGAAAAAAAGGGGAAAAAGGGGAAAGUAUUAUGUUACGCCGUUCGGAUCUGCA	0.484
